Measured values collected from several papers.
Protocols differ between the studies behind these lines.
Target: 5-hydroxytryptamine receptor 2C (HTR2C, Homo sapiens, UniProt P28335)
Residues used in one study (P28335 33-458): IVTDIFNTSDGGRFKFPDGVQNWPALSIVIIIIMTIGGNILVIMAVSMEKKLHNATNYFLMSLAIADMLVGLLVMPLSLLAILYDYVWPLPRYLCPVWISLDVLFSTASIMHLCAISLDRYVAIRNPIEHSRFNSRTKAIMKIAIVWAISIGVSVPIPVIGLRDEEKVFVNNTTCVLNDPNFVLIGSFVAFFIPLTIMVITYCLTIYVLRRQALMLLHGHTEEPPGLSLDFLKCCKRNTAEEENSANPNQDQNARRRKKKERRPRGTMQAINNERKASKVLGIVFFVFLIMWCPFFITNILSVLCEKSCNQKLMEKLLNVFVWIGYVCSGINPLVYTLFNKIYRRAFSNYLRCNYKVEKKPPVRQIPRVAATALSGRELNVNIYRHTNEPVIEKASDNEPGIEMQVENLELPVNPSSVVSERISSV

With `COc1ccc(C(=O)Nc2c(-c3cccs3)nc3ccccn23)cc1` the inhibition was less than 50% (ligand displacement, radioligand; 10 µM).
For `O=C1c2sc(-c3ccc(N4CCC(F)C4)nc3F)nc2CCN1c1cccnc1` (stereo not drawn), the inhibition was -6% (ligand displacement, radioligand; 1 µM).
`CC1Cc2ccccc2N1C(=O)CN1CCN(Cc2ccccc2)CC1` (stereo not drawn) has an inhibition of 0.3% (radioligand binding; concentration not given, together with: [3H]mesulergine).
`COc1ccc(S(=O)(=O)N2CCc3ccccc3C2)cc1N1CCN(C(=O)c2ccc(F)cc2C(F)(F)F)CC1` has an inhibition of 11.7% (binding, radioligand binding, agonist site; 1 µM).
`C[Si]1(C[C@H](CN)CC(=O)O)CCCC1` gave an inhibition of -4% (ligand displacement, radioligand; 70 µM).
The inhibition of `Cc1ccnc(OC[C@H]2CN(CCN3CCc4ccccc43)CCO2)c1` is reported as 10.5% (radioligand binding; concentration not given, together with: [3H]mesulergine).
`CC(C)Cn1c(SCC(=O)N2CCc3ccccc3C2)nc2cc(Cl)ccc2c1=O` has an inhibition of -7% (ligand displacement, radioligand; 10 µM).
With `CC1Cc2ccccc2N1C(=O)CN1CCN(c2ccccc2)CC1` (stereo not drawn) the inhibition was 10.5% (radioligand binding; concentration not given, together with: [3H]mesulergine).
`C[Si](C)(C)C[C@H](CN)CC(=O)O` gave an inhibition of -9% (ligand displacement, radioligand; 250 µM).

Repeated from above:
`C[Si]1(C[C@H](CN)CC(=O)O)CCCC1` gave an inhibition of -4% (ligand displacement, radioligand; 70 µM).
